{"data": "Results from different studies", "MAPK14": "Mitogen-activated protein kinase 14 (MAPK14, Homo sapiens, UniProt Q16539)", "CD38": "ADP-ribosyl cyclase/cyclic ADP-ribose hydrolase 1 (CD38, Homo sapiens, UniProt P28907)", "note": "Protocols differ between the studies behind these lines. ± marks the error that the study gave."}
{"Compound": "N[C@@H](Cc1ccc(O)c(O)c1)C(=O)O", "target": "polyphenol oxidase Crocus sativus", "test": "substrate", "system": "sprouting corm enzyme", "conditions": "pH 6.8", "quantity": "Km", "value": "2120 µM"}
{"Compound": "CC(=O)N[C@@H](Cc1c[nH]c2ccccc12)C(=O)N[C@@H](Cc1c[nH]c2ccccc12)C(=O)N[C@@H](Cc1c[nH]c2ccccc12)C(=O)N[C@@H](Cc1c[nH]c2ccccc12)C(=O)N[C@@H](Cc1c[nH]c2ccccc12)C(=O)N[C@@H](Cc1c[nH]c2ccccc12)C(=O)NCCCC[C@@H]1NC(=O)[C@H](CCCNC(=N)N)NC(=O)[C@H](CCCNC(=N)N)NC(=O)[C@H](CCCNC(=N)N)NC(=O)[C@H](CCCNC(=N)N)NC(=O)[C@H](CCCNC(=N)N)NC(=O)[C@H](CCCNC(=N)N)NC1=O", "target": "MAPK14", "test": "kinase activity, Reaction Biology radiometric", "conditions": "concentration not given, with: ATP 200 µM", "how to read": "relative to: DMSO", "quantity": "remaining activity", "value": "51.4%"}
{"Compound": "COc1ccc2c(Cl)c(C(N)=O)sc2n1", "target": "Cyclin-G-associated kinase (GAK, Homo sapiens, UniProt O14976)", "test": "binding, weak affinity chromatography-MS", "conditions": "flow 20 µL/min", "how to read": "higher = stronger binding", "quantity": "adjusted retention time", "value": "108 min"}
{"Compound": "NC(=O)C1CCNC(=O)C(CCCNC(=O)c2cnccn2)NC(=O)C(Cc2ccco2)NC(=O)C(CC=Cc2ccccc2)NC(=O)C=CC(=O)N1 (stereo not shown)", "target": "MAPK14", "test": "DNA-templated library selection", "conditions": "one selection round", "quantity": "enrichment factor", "value": 0.84}
{"Compound": "Cc1nn2ccc(-c3ccc4c(c3)CN([C@H]3CCC(=O)NC3=O)C4=O)nc2c1Cl", "target": "Cereblon/Casein kinase I alpha (CSNK1A1/CRBN, Homo sapiens, UniProt P48729+Q96SW2)", "test": "protein level, degrader, luciferase", "system": "MOLT-4", "quantity": "Dmax", "value": "89%"}
{"Compound": "C=C1C(=O)O[C@@H]2[C@H]3C(CO)=CC(=O)C3=C(C)C[C@H](O)[C@@H]12", "target": "Alpha-glucosidase MAL12 (MAL12, Saccharomyces cerevisiae S288c, UniProt P53341)", "test": "enzyme activity, inhibitor", "conditions": "65.22 µM", "quantity": "Vmax", "value": "0.013 mM/min"}
{"Compound": "CSCC[C@H](NC(=O)[C@H](CO)NC(=O)[C@H](CC(N)=O)NC(=O)[C@H](CC(C)C)NC(=O)[C@H](CO)NC(=O)[C@H](CCCCN)NC(=O)CNC(=O)[C@H](CCCCN)NC(=O)[C@H](CC(=O)O)NC(=O)[C@H](Cc1c[nH]cn1)NC(=O)[C@H](CC(C)C)NC(=O)[C@H](CC(C)C)NC(=O)[C@H](CCC(N)=O)NC(=O)[C@H](Cc1c[nH]cn1)NC(=O)[C@H](CCC(=O)O)NC(=O)[C@H](CO)NC(=O)[C@@H](NC(=O)[C@H](C)N)C(C)C)C(=O)N[C@@H](CCC(=O)O)C(=O)N[C@@H](CCCNC(=N)N)C(=O)N[C@H](C(=O)N[C@@H](CCC(=O)O)C(=O)N[C@@H](Cc1c[nH]c2ccccc12)C(=O)N[C@@H](CC(C)C)C(=O)N[C@@H](CCCNC(=N)N)C(=O)N[C@@H](CCCCN)C(=O)N[C@@H](CCCCN)C(=O)N[C@@H](CC(C)C)C(=O)N[C@@H](CCC(N)=O)C(=O)N[C@@H](CC(=O)O)C(=O)N[C@H](C(=O)N[C@@H](Cc1c[nH]cn1)C(=O)N[C@@H](CC(N)=O)C(=O)N[C@@H](Cc1ccccc1)C(=O)N[C@@H](CCCCNC(=O)c1ccc2c(c1)C1(OC2=O)c2ccc(N(C)C)cc2Oc2cc(N(C)C)ccc21)C(N)=O)C(C)C)C(C)C", "target": "Parathyroid hormone/parathyroid hormone-related peptide receptor (PTH1R, Homo sapiens, UniProt Q03431)", "test": "binding, NanoBRET", "system": "HEK293 stably expressing receptor", "conditions": "room temperature, 0.02% sodium azide, with: 5 µM coelenterazine h", "quantity": "kon", "value": "680000 ± 200000 M⁻¹ s⁻¹"}
{"Compound": "COc1cc(C(=O)NC2CCC(N3CCN(CC4CCC5(CCCC5)C4)CC3)CC2)c(F)cc1Nc1ncc2c(n1)N(C1CCCC1(F)F)CC(F)(F)C(=O)N2C (stereo not shown)", "target": "Serine/threonine-protein kinase pim-1 (PIM1, Homo sapiens, UniProt P11309)", "test": "cell-free assay, TR-FRET", "conditions": "10 µM", "quantity": "inhibition", "value": "0.32%"}
{"Compound": "CC(=O)NCCN(CC(=O)NCCN(CC(=O)NCCN(CC(=O)NCCC(N)=O)C(=O)C[C@@H](N)Cc1ccccc1)C(=O)C[C@@H](N)CCCNC(=N)N)C(=O)C[C@@H](N)CCCNC(=N)N", "target": "HIV-1 TAR RNA", "conditions": "concentration not given", "quantity": "heat capacity change ΔCp", "value": "-1.58 ± 0.14 kJ/mol/K"}
{"Compound": "CC(C)[C@H](NC(=O)[C@@H]1CCCN1C(=O)[C@H](C)NC(=O)[C@H](CO)NC(=O)[C@H](C)NC(=O)[C@H](CC(N)=O)NC(=O)[C@H](CCC(=O)O)NC(=O)[C@@H](NC(=O)[C@H](CC(=O)O)NC(=O)[C@H](CCCCN)NC(=O)[C@H](C)NC(=O)[C@H](CCC(N)=O)NC(=O)[C@H](Cc1ccccc1)NC(=O)[C@H](C)NC(=O)[C@H](Cc1c[nH]c2ccccc12)NC(=O)[C@H](C)NC(=O)[C@@H](NC(=O)CN)C(C)C)C(C)C)C(=O)O", "target": "PCY1 peptide cyclase, Saponaria vaccaria", "test": "substrate, isothermal titration calorimetry", "conditions": "30 °C", "quantity": "kcat/Km", "value": "560000 M⁻¹ s⁻¹"}
{"Compound": "CC(C)=CCCC(C)=CCc1cc(-c2coc3cc(OC4OC(C(=O)O)C(O)C(O)C4O)ccc3c2=O)ccc1O (stereo not shown)", "target": "UDP-glucuronosyltransferase 1A7 (UGT1A7, Homo sapiens, UniProt Q9HAW7)", "test": "glucuronidation, substrate, recombinant enzyme", "quantity": "Vmax", "value": "441 pmol/min/mg"}
{"Compound": "CCCCC[N+](CCCCC)(CCCCC)CCCCC", "target": "Potassium channel subfamily K member 2 (Kcnk2, Rattus norvegicus, UniProt Q920B6, L189C/T157C)", "test": "ion current, blocker, inside-out patch clamp", "conditions": "concentration not given, T157C-L189C double mutant", "how to read": "relative to: wild type", "quantity": "fold reduction in sensitivity", "value": "~500 fold"}
{"Compound": "CC(=O)NCCN(CC(=O)NCCN(CC(=O)NCCN(CC(=O)NCCC(N)=O)C(=O)[C@@H](N)CCCNC(=N)N)C(=O)[C@@H](N)Cc1ccccc1)C(=O)[C@@H](N)Cc1ccccc1", "target": "HIV-1 TAR RNA", "conditions": "25 °C", "quantity": "binding free energy ΔG°", "value": "-36.1 ± 1.4 kJ/mol"}
{"Compound": "Cc1cc(O)c2c(c1)C(=O)c1cc3oc(=O)cc(-c4ccc(Cl)cc4)c3c(O)c1C2=O", "target": "mushroom tyrosinase", "test": "enzyme activity", "conditions": "100 µg/mL, with: L-DOPA", "quantity": "inhibition", "value": "43.4 ± 0.48%"}
{"Compound": "NCCC(=O)N[C@@H](Cc1c[nH]c2ccc(O)cc12)C(=O)N[C@@H](Cc1ccc(Cl)cc1)C(=O)N[C@@H](Cc1ccncc1)C(N)=O", "target": "Ephrin type-A receptor 4 (EPHA4, Homo sapiens, UniProt P54764)", "test": "isothermal titration calorimetry", "quantity": "ligand efficiency", "value": 0.151}
{"Compound": "CCCCCCCCC(=O)Nc1ccc(OC)nc1C", "target": "Liver carboxylesterase 1 (CES1, Homo sapiens, UniProt P23141)", "test": "enzyme activity, substrate", "how to read": "relative to: CES1 over human CES2", "quantity": "specific activity ratio", "value": 11}
{"Compound": "CN1CCN(CC(=O)N2N=C3/C(=C/c4ccccc4)CCCC3C2c2ccccc2)CC1 (mixture of isomers)", "target": "Polyunsaturated fatty acid lipoxygenase ALOX15 (ALOX15, Homo sapiens, UniProt P16050)", "test": "enzyme activity, activator", "conditions": "pH 7.5", "quantity": "Emax", "value": "242%"}
{"Compound": "CC(=O)NCCN(CC(=O)NCCN(CC(=O)NCCN(CC(=O)NCCC(N)=O)C(=O)C[C@@H](N)Cc1ccccc1)C(=O)C[C@@H](N)Cc1ccccc1)C(=O)C[C@@H](N)CCCNC(=N)N", "target": "HIV-1 TAR RNA", "conditions": "extrapolated to 1 M KCl", "quantity": "non-electrostatic ΔG°", "value": "-34.1 ± 0.2 kJ/mol"}
{"Compound": "O=S(=O)(Nc1ccc(O)c2ccccc12)c1ccc(Cl)cc1", "target": "CD38", "test": "hydrolase activity, fluorometric", "conditions": "50 µM, with: ε-NAD+ substrate", "how to read": "relative to: untreated", "quantity": "remaining activity", "value": "95.9 ± 1.4%"}
{"Compound": "CSCC[C@H](NC(=O)[C@H](CO)NC(=O)[C@@H](NC(=O)[C@H](CCC(N)=O)NC(C)=O)[C@@H](C)O)C(=O)N[C@H](C(=O)N[C@@H](CC(=O)O)C(=O)N[C@@H](Cc1ccccc1)C(=O)N[C@@H](Cc1ccc(O)cc1)C(=O)N[C@@H](Cc1c[nH]cn1)C(=O)N[C@@H](CO)C(N)=O)[C@@H](C)O", "target": "Proliferating cell nuclear antigen (PCNA, Homo sapiens, UniProt P12004)", "test": "isothermal titration calorimetry", "conditions": "concentration not given, pH 7.4, 25 °C, 100 mM NaCl, with: p21 peptide", "quantity": "binding stoichiometry", "value": "0.7 ± 0.004"}
{"Compound": "O=c1c(O)c(-c2ccc(O)cc2O)oc2cc(O)cc(O)c12", "target": "CD38", "test": "cyclase activity, fluorometric", "conditions": "50 µM, with: NGD+ substrate", "how to read": "relative to: untreated", "quantity": "remaining activity", "value": "21 ± 2.3%"}
{"Compound": "CNc1ccccc1C(=O)O[C@H]1C[C@H](n2cnc3c(N)ncnc32)O[C@@H]1COP(=O)(O)OP(=O)(O)O", "target": "Unconventional myosin-Va (Gallus gallus, UniProt Q02440, D297C/G292C/I296C/S293C/V295G)", "test": "stopped-flow FRET", "conditions": "15 °C, with: MgCl2 2 mM", "quantity": "pocket forward rate constant", "value": "0.74 ± 0.39 s⁻¹"}
{"Compound": "CC(=O)NCCN(CC(=O)NCCN(CC(=O)NCCN(CC(=O)NCCC(N)=O)C(=O)[C@@H](N)CCCNC(=N)N)C(=O)[C@@H](N)CCCCN)C(=O)[C@@H](N)Cc1ccccc1", "target": "HIV-1 TAR RNA", "quantity": "non-electrostatic TΔS°", "value": "-40.6 ± 2.2 kJ/mol"}
{"Compound": "COc1ccc(CNC(=O)c2sc3nc(C)cc(C)c3c2N)cc1", "target": "Muscarinic acetylcholine receptor M4 (Rattus norvegicus, UniProt P08485)", "how to read": "relative to: acetylcholine", "quantity": "Emax", "value": "69%"}
{"Compound": "CCOc1ccccc1-c1nnc2n1N=C(c1ccc(NC3CCCC3)cc1)CS2", "target": "C-X-C chemokine receptor type 4 (CXCR4, Homo sapiens, UniProt P61073)", "test": "β-arrestin recruitment, agonist", "system": "U2OS", "quantity": "Emax", "value": "31%"}
{"Compound": "C=C[C@]12CCC(=O)C=C1CC[C@H]1[C@@H]3CC[C@H](C(C)=O)[C@@]3(C)CC[C@@H]12", "target": "Membrane progesterone receptor epsilon (Paqr9, Mus musculus, UniProt Q6TCG2)", "test": "pPKA/PKA immunoblot", "system": "MDA-MB-231 expressing Paqr9-GFP", "conditions": "30 nM, 20 min", "how to read": "relative to: control", "quantity": "PKA activation", "value": "156 ± 18%"}
{"Compound": "O=C(Nc1ccc(C(=O)Nc2ccc(C(=O)Nc3ccc(S(=O)(=O)O)c4cc(S(=O)(=O)O)cc(S(=O)(=O)O)c34)cc2)cc1)Nc1ccc(C(=O)Nc2ccc(C(=O)Nc3ccc(S(=O)(=O)O)c4cc(S(=O)(=O)O)cc(S(=O)(=O)O)c34)cc2)cc1", "target": "Neutrophil elastase (ELANE, Homo sapiens, UniProt P08246)", "test": "enzyme activity, inhibitor, chromogenic substrate hydrolysis", "conditions": "pH 7.4, 37 °C, 100 mM NaCl, with: substrate S-1384", "quantity": "maximal inhibition", "value": "105.4 ± 1%"}
{"Compound": "[3H]C([3H])([3H])c1cnccc1CN1C[C@@H](c2cc(F)c(F)c(F)c2)CC1=O", "target": "Synaptic vesicle glycoprotein 2A (SV2A, Homo sapiens, UniProt Q7L0J3)", "test": "radioligand binding", "system": "human Alzheimer disease, temporal cortex P1 fraction", "conditions": "5 nM", "how to read": "relative to: control brains", "quantity": "specific binding", "value": "decreased"}
{"note": "For quick reference, copied from above:"}
{"Compound": "Cc1cc(O)c2c(c1)C(=O)c1cc3oc(=O)cc(-c4ccc(Cl)cc4)c3c(O)c1C2=O", "target": "mushroom tyrosinase", "test": "enzyme activity", "conditions": "100 µg/mL, with: L-DOPA", "quantity": "inhibition", "value": "43.4 ± 0.48%"}
{"Compound": "NCCC(=O)N[C@@H](Cc1c[nH]c2ccc(O)cc12)C(=O)N[C@@H](Cc1ccc(Cl)cc1)C(=O)N[C@@H](Cc1ccncc1)C(N)=O", "target": "Ephrin type-A receptor 4 (EPHA4, Homo sapiens, UniProt P54764)", "test": "isothermal titration calorimetry", "quantity": "ligand efficiency", "value": 0.151}
